Published values of several laboratories.
Protocols differ between the studies behind these lines. Several values in a cell are separate wells, animals, samples, runs or records. Numbers after ± are the reported error.
UniProt P08684, sequence (whole entry, looked up): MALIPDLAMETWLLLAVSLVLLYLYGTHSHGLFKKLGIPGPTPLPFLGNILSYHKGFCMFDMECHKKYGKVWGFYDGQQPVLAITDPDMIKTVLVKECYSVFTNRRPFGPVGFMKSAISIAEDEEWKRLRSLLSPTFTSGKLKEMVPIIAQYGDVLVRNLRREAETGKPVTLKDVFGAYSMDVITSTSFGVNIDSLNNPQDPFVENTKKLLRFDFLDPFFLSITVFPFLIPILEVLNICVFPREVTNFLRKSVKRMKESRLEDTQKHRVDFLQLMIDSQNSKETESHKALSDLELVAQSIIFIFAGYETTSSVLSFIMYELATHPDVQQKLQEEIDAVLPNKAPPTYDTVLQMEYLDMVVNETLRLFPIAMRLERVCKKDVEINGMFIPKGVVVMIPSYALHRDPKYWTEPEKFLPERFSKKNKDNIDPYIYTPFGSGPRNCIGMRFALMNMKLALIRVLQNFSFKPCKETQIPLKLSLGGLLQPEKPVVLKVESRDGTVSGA

CCCCCCCCCCCCCCCC(=O)N[C@@H](CCC(=O)NCCOCCOCCC(=O)NCCOCCOCCC(=O)NCCCC[C@H](NC(=O)[C@H](CC(=O)O)NC(=O)[C@H](CC(C)C)NC(=O)[C@H](Cc1ccc(O)cc1)NC(=O)[C@H](CCCCN)NC(=O)[C@H](CO)NC(=O)[C@H](Cc1ccc(O)cc1)NC(=O)[C@H](CC(=O)O)NC(=O)[C@H](CO)NC(=O)[C@@H](NC(=O)[C@H](Cc1ccccc1)NC(=O)[C@@H](NC(=O)CNC(=O)[C@H](CCC(N)=O)NC(=O)[C@@H](CO)NC(=O)[C@@H](N)Cc1c[nH]cn1)[C@@H](C)O)[C@@H](C)O)C(=O)N[C@@H](CCCNC(=N)N)C(=O)N[C@@H](CCCNC(=N)N)C(=O)N[C@@H](C)C(=O)N[C@@H](CCC(N)=O)C(=O)N[C@@H](CC(=O)O)C(=O)N[C@@H](Cc1ccccc1)C(=O)N[C@H](C(=O)N[C@@H](CCC(N)=O)C(=O)N[C@@H](Cc1c[nH]c2ccccc12)C(=O)N[C@@H](CC(C)C)C(=O)N[C@@H](CC(C)C)C(=O)N[C@@H](CC(N)=O)C(=O)N[C@H](C(=O)NCC(=O)NCC(=O)N1CCC[C@H]1C(=O)N[C@@H](CO)C(=O)N[C@@H](CO)C(=O)NCC(=O)N[C@@H](C)C(=O)N1CCC[C@H]1C(=O)N1CCC[C@H]1C(=O)N1CCC[C@H]1C(=O)N[C@@H](CO)C(N)=O)[C@@H](C)O)C(C)C)C(=O)O has a Tmax of 1 h (rhesus monkey, male, plasma; subcutaneous, 20 µg/kg, day 28, toxicokinetics, median).
O=C1CC[C@H]2[C@H]3Cc4ccc(O)c5c4[C@@]2(CCN3CCc2ccccc2)[C@H]1O5 gave a logD of 1.69 (octanol/buffer; 1 h, pH 7.4).
Cc1ccc(OC[C@H]2CCCN2C)cc1C(=O)N[C@H](C)c1cc(-c2cnn(C)c2)nc2ccccc12 gave a viability of 4.42% and 1.26% and 0.158% (Vero E6; 125 µM).
CNC(=O)C[C@H](Cc1ccc(F)cc1)NC(=O)[C@@H](Cc1ccc(Cl)cc1Cl)NC(=O)[C@H](N)Cc1ccccc1[N+](=O)[O-] gave a viability of 1.06 and 1.05 and 1.01 (Huh-7-ACE2; CellTiter-Glo; 0.00305 µM, 48 h, unit not given; baseline: DMSO).
Cc1cc(-c2ccc3ccccc3c2)nnc1NCCN1CCN(C)CC1 has a remaining compound of 92% (Cytochrome P450 3A4 (CYP3A4, Homo sapiens, UniProt P08684); substrate; recombinant enzyme; 100 nM, 0.5 h).
The gamma-glutamyltransferase activity of O=C1NC2(CC2)COc2ncc(F)cc2[C@H]2COCCN2c2ccn3ncc1c3n2 is reported as 0.4 ± 0.3 U/L (Sprague-Dawley rat, female, serum; oral, 5 mg/kg/day, 4 weeks daily, end of treatment).
With Cc1ccc(N2CCN(C)C3(CC3)C2)cc1C(=O)N[C@H](C)c1cc(-c2cnn(C)c2)nc2ccccc12 the viability was 7.08% and 5.83% and 6.04% (Vero E6; 250 µM).
For Cc1nc2cccc(OCC(C)(C)C(=O)NC(C)C)c2c(N)c1C(=O)[O-].[Na+], “revertant colonies per plate” read 121 ± 9 (Salmonella typhimurium; TA100; 0.32 mg per plate, with S9, plate incorporation).
O=C1CC[C@@]2(O)[C@H]3Cc4ccc(O)c5c4[C@@]2(CCN3CC2CCC2)[C@H]1O5 gave a logD of 1.24 (octanol/buffer; 1 h, pH 7.4).
For Cc1ccc(N2CCN(C)[C@H](C)C2)cc1C(=O)N[C@H](C)c1cc(-c2cnn(C)c2)nc2ccccc12, the viability was 3.45% (African green monkey cells; 125 µM).
